{"data": "Measured values collected from several papers", "note": "Parts stem from different laboratories: compare values within a part only."}
{"data": "Sample 1", "target": "Histone acetyltransferase KAT6A, winged helix 2, GST fusion (KAT6A, Homo sapiens, UniProt Q92794, residues 85-181)", "technique": "protein binding microarray", "molecule type": "double-stranded DNA, one strand shown", "matrix": "in vitro", "concentration": "not given", "notes": "8-mer, flanks averaged, mean of 2 arrays, mostly near background", "reference": "not given", "direction": "higher = stronger binding", "Target sequence (chain)": "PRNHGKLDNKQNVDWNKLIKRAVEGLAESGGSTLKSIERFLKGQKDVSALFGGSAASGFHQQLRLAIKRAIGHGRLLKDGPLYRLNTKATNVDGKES"}
{"Strand": "AGCGGATC", "E-score": 0.129}
{"Strand": "ATAGGGAA", "E-score": 0.0302}
{"Strand": "GACGACAC", "E-score": -0.0124}
{"Strand": "ACTGAAGC", "E-score": 0.079}
{"Strand": "CCGATAAG", "E-score": -0.0733}
{"Strand": "CTTTCATA", "E-score": 0.0066}
{"Strand": "CTACTAGC", "E-score": 0.0762}
{"Strand": "ATCACCCG", "E-score": 0.13}
{"Strand": "CGACTACC", "E-score": -0.177}
{"Strand": "ATGCATCC", "E-score": -0.00783}
{"Strand": "TCACCAAA", "E-score": 0.0662}
{"Strand": "CGGCCCAG", "E-score": 0.0909}
{"Strand": "AGAGCGGA", "E-score": -0.0253}
{"Strand": "GTGTCAGA", "E-score": 0.0869}
{"Strand": "GCATCCTA", "E-score": -0.0689}
{"Strand": "CTACTTGA", "E-score": -0.171}
{"Strand": "ATCATTTC", "E-score": 0.107}
{"Strand": "GCCCGGCA", "E-score": 0.218}
{"Strand": "AGTTTACA", "E-score": -0.0234}
{"Strand": "AAGCACCG", "E-score": 0.0487}
{"Strand": "CGGGGCTA", "E-score": 0.0479}
{"Strand": "CATGTTCG", "E-score": -0.0949}
{"Strand": "GTTTTTCA", "E-score": 0.0398}
{"Strand": "CCGTAGAG", "E-score": 0.0178}
{"Strand": "CCAATTCA", "E-score": -0.107}
{"data": "Sample 2", "target": "Phosphate system positive regulatory protein PHO4, full length, GST-tagged (PHO4, Saccharomyces cerevisiae, UniProt P07270, residues 1-312)", "technique": "competition protein-binding microarray", "molecule type": "double-stranded DNA, one strand shown", "matrix": "in vitro", "concentration": "2 µM", "notes": "whole 60-bp probe, lowest competitor level", "added": "Cbf1 competitor, 0.05 µM", "direction": "higher = stronger binding", "shared flanks, not repeated": "… GTCTTGATTCGCTTGACGCTGCTG", "Construct (chain)": "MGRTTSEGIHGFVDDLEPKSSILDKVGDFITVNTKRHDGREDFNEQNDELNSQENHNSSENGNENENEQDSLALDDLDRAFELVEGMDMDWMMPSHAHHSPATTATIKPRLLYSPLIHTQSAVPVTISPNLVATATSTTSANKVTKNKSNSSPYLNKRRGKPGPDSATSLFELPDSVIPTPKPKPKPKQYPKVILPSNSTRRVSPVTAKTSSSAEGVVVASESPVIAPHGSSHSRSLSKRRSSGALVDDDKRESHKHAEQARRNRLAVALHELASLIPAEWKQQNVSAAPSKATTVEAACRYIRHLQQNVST"}
{"Strand": "CTGATTCGTTGGGCTTACGTGATGGTTCCTGGCATT", "fluorescence intensity [a.u.]": 6020}
{"Strand": "ACCTTGTTCCAATTGTTCGTGATGGATTTCAACGGA", "fluorescence intensity [a.u.]": 4390}
{"Strand": "GTCTTGTCTCATTGCAGTGTGGGTGTCCCCACTTCA", "fluorescence intensity [a.u.]": 5770}
{"Strand": "CTTTCCCGATCTTTTCACGTGCACTTAGCACATTTG", "fluorescence intensity [a.u.]": 14700}
{"Strand": "TGCGCAACAACTTGTACGGTGGGTGTATGTCTAGAA", "fluorescence intensity [a.u.]": 4690}
{"Strand": "AAAGCGGTAATTTGTCACTCAACTTCACATATCTAT", "fluorescence intensity [a.u.]": 3700}
{"Strand": "GGCTTGCAACTCCGTCACATGAGGTATGGGGGACAT", "fluorescence intensity [a.u.]": 6920}
{"Strand": "TGCGCAACAACTTGTGCAGTGGGTGTATGTCTAGAA", "fluorescence intensity [a.u.]": 6080}
{"Strand": "GGGGACACCAGTTATCATGTTGTCAACCAAAGACTT", "fluorescence intensity [a.u.]": 4150}
{"Strand": "GGAGACACTAATAAGCACGTGAGGGTTTTTGGACAA", "fluorescence intensity [a.u.]": 16500}
{"Strand": "AACTGAGGTTTTCGTCACATGTACCGCCCTTTCTTC", "fluorescence intensity [a.u.]": 7340}
{"Strand": "GTCTTGTCTCATTGCAAGGTGGGTGTCCCCACTTCA", "fluorescence intensity [a.u.]": 4910}
{"Strand": "TCACAACAGATATCCCACATGAGGCAGCGCTACCCA", "fluorescence intensity [a.u.]": 7200}
{"Strand": "CTAACGAAGGTTTGTCATGTGGGTGACAAGCCAAGT", "fluorescence intensity [a.u.]": 9370}
{"Strand": "GAGACCACATATTCACACGTGATGGATAGTCCCGTT", "fluorescence intensity [a.u.]": 15300}
{"Strand": "CATCCTCTTACATCGCACGTGATGGTATACTACTAA", "fluorescence intensity [a.u.]": 19400}
{"Strand": "GCTTTCCCAGCGATGCTCGTGTGGAGGACCGAACAT", "fluorescence intensity [a.u.]": 7370}
{"Strand": "CGTCCTAGTGATTGCCAAGTGGGTGCCATGAGGAAG", "fluorescence intensity [a.u.]": 7070}
{"Strand": "CGTCCTAGTGATTGGTCAGTGGGTGCCATGAGGAAG", "fluorescence intensity [a.u.]": 7240}
{"Strand": "ATGGCATCTTGCGGGAACGTGCAAAAAAGCTCAATG", "fluorescence intensity [a.u.]": 13300}
{"Strand": "AAGGAGGGTAAGACACACATGATAATCAATGTCGAA", "fluorescence intensity [a.u.]": 6150}
{"Strand": "TTGTTCCGCGGAAAGCACGTGAGCCTAATCCACTCG", "fluorescence intensity [a.u.]": 16600}
{"Strand": "GTAACCAGACAAGTCAGCGTGAGGACAGTTGGATTC", "fluorescence intensity [a.u.]": 4270}
{"Strand": "TTGATCTTGCCAAGTCTCGTGGTGAACTATCCATTT", "fluorescence intensity [a.u.]": 7720}
{"Strand": "CCTTTGCAGTAGCATCACATGAATCGCGAAAGTCTA", "fluorescence intensity [a.u.]": 5060}
{"data": "Sample 3", "target": "Interferon regulatory factor 5, full length, phosphomimetic (IRF5, Homo sapiens, UniProt Q13568-2, residues 1-514, K96S/S451D/S453D/S456D/S462D)", "technique": "protein-binding microarray", "molecule type": "double-stranded DNA, one strand shown", "matrix": "in vitro", "concentration": "250 nM", "notes": "60-bp whole probe", "added": "salmon DNA 0.4 mg/ml", "reference": "random background probes", "direction": "higher = stronger binding", "shared flanks, not repeated": "GCCTAGCAC … GTCTTGATTCGCTTGACGCTGCTG"}
{"Strand": "TTAGGAATCGGTCTCGGTTAGTGCTAG", "log fluorescence [z-score]": 1.18}
{"Strand": "TCATCTTCCCCTCTCTTACTGTGCTAG", "log fluorescence [z-score]": 0.39}
{"Strand": "TTAGATCTCAGTTTTGATTAGTGCTAG", "log fluorescence [z-score]": 1.08}
{"Strand": "GACGGTATCGACTATCGGGCCGTGCTA", "log fluorescence [z-score]": 3.65}
{"Strand": "TTAGGTCTCGGACTGGGTTGGTGCTAG", "log fluorescence [z-score]": -0.348}
{"Strand": "GACGGTATCGGATTCGGGACGTGCTAG", "log fluorescence [z-score]": 1.68}
{"Strand": "CAACCTATAGGTTCAACGACGTGCTAG", "log fluorescence [z-score]": -0.158}
{"Strand": "TTAGGTATCCTTATCCTTCAGTGCTAG", "log fluorescence [z-score]": 0.317}
{"Strand": "GACAGTTTCGACACTGGGGACGTGCTA", "log fluorescence [z-score]": 7.66}
{"Strand": "TTAGGACTGGGGTATCAGTTAGTGCTA", "log fluorescence [z-score]": 0.2}
{"Strand": "GACGGTTTCCTACTGCTGCCGTGCTAG", "log fluorescence [z-score]": 0.449}
{"Strand": "TCAAATTTTTTTTCTAAACTGTGCTAG", "log fluorescence [z-score]": 0.905}
{"Strand": "AAACGGGCTTCTTTTTCTCAGGTGCTA", "log fluorescence [z-score]": 0.368}
{"Strand": "TTAGATTTAGGGTATCGATTAGTGCTA", "log fluorescence [z-score]": 2.01}
{"Strand": "TTAGAACTGAGGTATCGATTAGTGCTA", "log fluorescence [z-score]": 2.58}
{"Strand": "TTAGGTATCCTTATCGTTTAGTGCTAG", "log fluorescence [z-score]": 0.693}
{"Strand": "TTAGGACTGTACTTTCGGTTAGTGCTA", "log fluorescence [z-score]": 10.1}
{"Strand": "GAAGATTTCAATTAAAAAAAGTGCTAG", "log fluorescence [z-score]": 1.47}
{"Strand": "TCATCTCTGTCCCTGTTACTGTGCTAG", "log fluorescence [z-score]": 0.492}
{"data": "Sample 4", "target": "RNA binding protein fox-1 homolog 2, RRM domain, GST-SBP tag (RBFOX2, Homo sapiens, UniProt O43251-10, residues 100-194)", "technique": "RNA Bind-n-Seq", "molecule type": "RNA", "matrix": "in vitro", "concentration": "365 nM", "notes": "natural RNA segment, single round, ends assumed", "reference": "no-protein control", "direction": "higher = stronger binding", "shared flanks, not repeated": "GGGAGUUCUACAGUCCGACGAUC … UGGAAUUCUCGGGUGCCAA", "Residues (chain)": "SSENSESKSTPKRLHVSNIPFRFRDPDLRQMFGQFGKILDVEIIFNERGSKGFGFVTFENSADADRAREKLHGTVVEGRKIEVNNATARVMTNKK"}
{"Strand": "CCAUGUAAAUAAGUAGACUGUAAAGAGAGACUAUCUUGCAUUAUGACUGUAUGAAUUUCUAAGUGCUGUUUGAUUGGGUUUUGUUACAGGAUGUAUAAUUUAUCUGUCUA", "RBNS enrichment (R)": 2.54}
{"Strand": "CUGUUUUCAAGGGGAGUAAGAUUGGUAACAUUUGGGGAGACUGUAUCUGUCUACUUAGCGUGGCUGUUUUGAGGGACUGUCCCAUCAGUGAACAAACUGCAUGGCCUUGG", "RBNS enrichment (R)": 1.2}
{"Strand": "CUCCAGGUCCCGGAGGGGAUUUGUGGACCUCUCUUGUCUCCCCACCACUCCAGUGCAUUUCCGCCUGGCUCCUAGAAGCCCCAUUCAAUAUCACUACUCUUUAACGAGUG", "RBNS enrichment (R)": 0.789}
{"Strand": "CAAUGAAAUGUCACAUUAUUCAUCCUGAGUCCGAGACUCAAAUUUUCUGCCCCAGCCAAAAUAAUCUUGUGCCAAAAGAUUAAAGGUUUGCCUCAAAAUGUCCCUGUUUG", "RBNS enrichment (R)": 0.667}
{"Strand": "UGGGCUAGAGGUGGGAAGCUUGAGUGUUUAAUAAAAUGAGGCUUUUGGAAAGAAAGAUGAAAACGUAGAAUGUAGUGCUAAGAACGUUUCCCGUUCUCUCAUGCCUUCGC", "RBNS enrichment (R)": 1.76}
{"Strand": "CUCUCUCUAGGCAGAGCGUUCCUGGCCAGAGCUCUACCUCUUUGCCUCCUGCUGACCCCUGACAGCGUCCCGUGGCAUUUCUUUCAUGUCUGCAUAUUGCAUAGCCUUGU", "RBNS enrichment (R)": 0.459}
{"Strand": "UGCUAUUAUUGUAUUUCAGUGGCAAUGGACACAUUAGCCUUUUACAAGAGGACUAGAGUUCAUCAAGCCUUGAAAGGCAGGCUUCACAGUGCCGAGUUGGCGGGAAAAGC", "RBNS enrichment (R)": 0.294}
{"Strand": "CAAAGCCUGUGAGCAGUAUACGUGGAUGCUCACCCAUGAGAAGGAGCACACACGCCUCAUUCUCUGCCCUCACCCACUGCUCACCUAGAGCAUCGCUGAGCGUUAGACAA", "RBNS enrichment (R)": 0.267}
{"Strand": "AAUACUCAAAGAAAGAAAAGUGGCAGCACUUAUAUUAGUUUUAUAACAGGAUAAAGUCUUGUGUAUAGCAAAGUAGUUGCAUCUGUUUAUUUUCUAUUUAUUAUUGUUAC", "RBNS enrichment (R)": 0.463}
{"Strand": "UACCUGCCCGACCCCUCCCCCACCAAGGUAUCUUGGGCUCCAGCCUCAGAGCCUGGACUAGUUCUGAGCAUGUGUCCCUCUGUGUAUAGUGAGGAAGUGAGAGCAGAGGC", "RBNS enrichment (R)": 4.92}
{"Strand": "UUUCUGAACACCAUAGGUAGAAUGUAAAGCUUGUCUGAUCGUUCAAAGCAUGAAAUGGAUACUUAUAUGGAAAUUCUGCUCAGAUAGAAUGACAGUCCGUCAAAACAGAU", "RBNS enrichment (R)": 7.67}
{"Strand": "GGCAUCCAGGUCAUCUUUUCUUUUCUCCAACCAUUAUUAAAAUAACUUGACACUUUGGGAGGCCAAGCUGGGCAGAUCACCUGAGGUCAGGAGUUUGAGACCAGCCUGGC", "RBNS enrichment (R)": 0.498}
{"note": "Some of these lines once more (sample 2):"}
{"Strand": "ATGGCATCTTGCGGGAACGTGCAAAAAAGCTCAATG", "fluorescence intensity [a.u.]": 13300}
{"Strand": "AAGGAGGGTAAGACACACATGATAATCAATGTCGAA", "fluorescence intensity [a.u.]": 6150}
{"Strand": "TTGTTCCGCGGAAAGCACGTGAGCCTAATCCACTCG", "fluorescence intensity [a.u.]": 16600}
{"Strand": "GTAACCAGACAAGTCAGCGTGAGGACAGTTGGATTC", "fluorescence intensity [a.u.]": 4270}
{"Strand": "TTGATCTTGCCAAGTCTCGTGGTGAACTATCCATTT", "fluorescence intensity [a.u.]": 7720}
